Measured values collected from several papers.
Protocols differ between the studies behind these lines. Values joined by “and” are separate records of one study, mostly repeats; a detail may differ.
Target: Tyrosine-protein kinase Mer (MERTK, Homo sapiens, UniProt Q12866)

For `CC(C)=CC1OC(C)(C)C2C=C3C(=O)C(Cl)=CC(O)C3C3C(O)C4OC4C(=O)C132` (centres unmarked), the remaining binding was 77% (cell-free assay, competition with immobilised ligand; 10 µM).
`Nc1ncc2c(n1)-c1c([nH]c3ccc(C4=CCOCC4)cc13)CCC2` gave a remaining binding of 62% (binding, competition with immobilised ligand; 1 µM).
`C=CC(=O)Nc1cccc(-c2cnc3[nH]cc(C(=O)NC(C)(C)C)c3n2)c1` has an inhibition of 13% (enzyme activity, inhibitor; 0.1 µM).
The remaining binding of `COc1c(Cl)cccc1Nc1c(-c2ccncc2C#C[C@@]2(C)CCCN2C(=O)/C=C/CN(C)C)[nH]c2c1C(=O)NCC2` is reported as 100% (binding, competition with immobilised ligand; 3 µM).
For `CNC(=O)C[C@H](Cc1ccc(C#N)cc1)NC(=O)c1cc(-c2ccc(CN[C@H](C)c3ccc(C)cc3)o2)ccc1Cl`, “activity vs control” read 116% (enzyme activity, inhibitor; 1 µM).
The remaining binding of `Cc1cc(NC(=O)[C@H](O)c2cc(F)cc(F)c2)ccc1-c1cnc(N)c(C(=O)NC(C)C)c1` is reported as 50% (binding, competition with immobilised ligand; 1 µM).
The remaining activity of `COc1ccc(NC(=O)Nc2ccc3c(c2)C(=O)N(C(C)CO)CC(C)C(CN(C)Cc2ccc4c(c2)OCO4)O3)cc1` (centres unmarked) is reported as 103% (kinase activity, KinaseProfiler; 0.03 µM, species human; reference: control).
`COCC12C(=O)NC3C4(C(OC)CC1O)C1CC5(O)C(OC)C(O)C(OC(C)=O)(C1C5OC(=O)c1ccccc1)C3(O)C(OC)C24` (centres unmarked) gave a remaining activity of 108% and 135% (kinase activity, inhibitor, ProQinase kinase profiling; 25 µM; reference: control).
`COc1cc(Nc2nccc(-c3cnn4nc(OC)ccc34)n2)cc(C(F)(F)F)c1` has a remaining binding of 100% (binding, competition with immobilised ligand; 1 µM).
`Cc1cccc(O[C@H]2CCC[C@@H](C(C)CNCc3ccncc3)C2)c1` (relative stereo) has an inhibition of 5% (enzyme activity, inhibitor; 1 µM).
`C=CC(=O)N1Cc2nc(-c3cc(-c4cc(Cl)cnc4Cl)c(F)cc3F)n(-c3ccncn3)c2C1` has an inhibition of 7.4% (cell-free assay, inhibitor; 1 µM).
With `C=CC(=O)N1CCc2ccc(-n3c(=O)ccc4cnc5ccc(-c6cnn(C)c6)cc5c43)cc21` the remaining binding was 78% (KINOMEscan; 1 µM; reference: DMSO control).
With `CCN1CCN(Cc2ccc(C(=O)Nc3ccc(C)c(NCc4cnc5[nH]ccc5c4OC)c3)cc2C(F)(F)F)CC1` the remaining binding was 46% (binding, competition with immobilised ligand; 1 µM).
The remaining binding of `CNC(=O)C1CCN(c2cc(C)c(F)cc2NC(=O)c2ccc(-c3cc(O)ccc3C)c(C)c2)CC1` is reported as 92% (binding, competition with immobilised ligand; 1 µM).
For `NC(=O)C[C@H]1CCc2sc3ncnc(O[C@H]4CC[C@H](N5CCOCC5)CC4)c3c21`, the inhibition was 21% (enzyme activity, inhibitor; 10 µM).
`CNC1C[S+]2CC[S+]3CC[S+](C1)[Ru-4]321([N]=C=S)[n]2c3ccc(OC)cc3c3c4c(c5cc(F)c[n+]1c5c32)C(=O)NC4=O` (centres unmarked) has a remaining binding of 100% (KinomeScan; 0.1 µM; reference: untreated).
For `Nc1ncc(-c2cc(-c3cnn(CC(F)(F)F)c3)ncc2F)nc1C(=O)NC1CNCC(F)C1` (centres unmarked), the remaining activity was 7.53% (enzyme activity; 1 µM; reference: DMSO control).

For quick reference, copied from above:
For `CC(C)=CC1OC(C)(C)C2C=C3C(=O)C(Cl)=CC(O)C3C3C(O)C4OC4C(=O)C132` (centres unmarked), the remaining binding was 77% (cell-free assay, competition with immobilised ligand; 10 µM).
